Results pooled from the literature.
Protocols differ between the studies behind these lines. Values joined by “and” are separate records of one study, mostly repeats; a detail may differ. ± gives the spread as reported.

Structure (SMILES) | assay | system | setting | quantity | result
Cc1cc(C)c(CNC(=O)c2cc(Cl)c3c(c2C)O[C@@](C)([C@H]2CC[C@H](N(C)C)CC2)O3)c(=O)[nH]1 | – | human, relapsed/refractory NHL | concentration not given, all TEAEs, grade 5 | Neutropenia incidence | 0%
O=C(O)CCCOc1ccc(F)cc1-c1cc(-c2ccccc2C(F)(F)F)n(-c2ccccc2)n1 | – | male Crl:CD(SD) rats, salivary glands | intravenous, 25 µg/kg, 14 d | organ weight | 0.71 ± 0.08 g
CC1(C)[C@H](C(=O)OCc2cccc(Oc3ccccc3)c2)[C@@H]1C=C(Cl)Cl | measured: CYP3A5 | human, age 6 months, recombinant human CYP3A5 | 0.1 µM | enzyme contribution to clearance | 0.14%
N#C/N=C1\SCCN1Cc1ccc(Cl)nc1 | – | soil | 56 days, nominal 10 | recovery | 0.5%
[NH2][Pt]([NH2])([OH])([OH])([Cl])[Cl] | ICP-MS, measured: platinum | blood-brain barrier spheroids | 5 µM, 3 h, 37 °C | uptake | 0.7 ng/mL
COc1ncnn2ccc(-c3cnc4nc(C)n(Cc5nnc([C@@H](C)F)o5)c4c3)c12 | – | human | oral, dose not given, grade 4 | patients with diarrhea | 0%
COc1cc2c(Oc3ccc4[nH]c(C)cc4c3F)ccnc2cc1OCC1(N)CC1 | – | paediatric refractory sarcoma patients | 8 mg | QTc prolongation incidence | 0%
CO[C@H]1C[C@@H]2CC[C@@H](C)[C@@](O)(O2)C(=O)C(=O)N2CCCC[C@H]2C(=O)O[C@H]([C@H](C)C[C@@H]2CC[C@@H](OC(=O)NCCOCCOCCOCCOCCOCCOCCOCCOCCC(=O)N3CCc4cc(Cn5nc(-c6ccc7oc(N)nc7c6)c6c(N)ncnc65)ccc4C3)[C@H](OC)C2)C[C@@H](O)[C@H](C)/C=C(\C)[C@@H](O)[C@@H](OC)C(=O)[C@H](C)C[C@H](C)/C=C/C=C/C=C/1C | – | patients with advanced solid tumours | intravenous, 12 mg weekly, grade 3 or higher | AE leading to discontinuation | 16.7%
O=[N+]([O-])c1ccc2c(c1)S(=O)(=O)C=C2 | – | male C57BL/6 mice, blood | intraperitoneal, 20 mg/kg, day 8, group average | mean corpuscular haemoglobin concentration | 289 g/L
CCCCCCCCCCCCCCCC(=O)N[C@@H](CCC(=O)NCCCC[C@H](NC(=O)[C@H](CC(=O)O)NC(=O)[C@H](CO)NC(=O)[C@@H](NC(=O)[C@H](Cc1ccccc1)NC(=O)[C@@H](NC(=O)CNC(=O)[C@H](CCC(N)=O)NC(=O)[C@H](CO)NC(=O)[C@@H](N)Cc1c[nH]cn1)[C@@H](C)O)[C@@H](C)O)C(=O)N[C@@H](CO)C(=O)N[C@@H](CCC(=O)O)C(=O)N[C@@H](Cc1ccc(O)cc1)C(=O)N[C@@H](CC(C)C)C(=O)N[C@@H](CC(=O)O)C(=O)N[C@@H](CO)C(=O)N[C@@H](CCC(=O)O)C(=O)N[C@@H](CCCNC(=N)N)C(=O)N[C@@H](C)C(=O)N[C@@H](CCCNC(=N)N)C(=O)N[C@@H](CC(=O)O)C(=O)N[C@@H](Cc1ccccc1)C(=O)N[C@H](C(=O)N[C@@H](C)C(=O)N[C@@H](Cc1c[nH]c2ccccc12)C(=O)N[C@@H](CC(C)C)C(=O)N[C@@H](CCC(=O)O)C(=O)N[C@@H](C)C(=O)NCC(=O)NCC(=O)O)C(C)C)C(=O)O | – | human, CrCl ≥30 to <45 mL/min | sc, 100 µg single dose | atrial fibrillation | 9.1%
COc1ccc(-c2c(-c3ccc(C#N)c(F)c3)nc(N3CCC(N)CC3)n(C)c2=O)cc1F | measured: ≥1 event | neuroendocrine neoplasm patients | oral, 60 mg, dose expansion | any-grade TRAE incidence | 94%
CC(=O)c1c(C)c2cnc(Nc3ccc(C4CCN(CCS(C)(=O)=O)CC4)cn3)nc2n(C2CCCC2)c1=O | – | human, plasma | oral, 50 mg, day 1 single dose | MRT | 7.91 h
COc1cccc(Oc2ccccc2NC(=O)CNC(=O)c2cccc3ccccc23)c1 | – | esterase-deficient SCID mice, male | oral, 40 mg/kg/day, 14 days, toxicity study | bicarbonate (total CO2) | 18 mmol/L and 20 mmol/L and 17 mmol/L
CC(C)CC(=O)OC[C@H]1O[C@@](C#N)(c2ccc3c(N)ncnn23)[C@H](O)[C@@H]1O | plasma protein binding | rat plasma | 0.9 µM, time not given | recovery | 87%
COc1ncccc1-c1cnn2ccc(N3CCN(C(=O)OC(C)C)CC3)nc12 | – | rat, CCI cold allodynia model, brain | oral, 1 mg/kg, 240 min | drug concentration | 430 nM
CN1CC[C@@H](c2c(O)cc(O)c3c(=O)cc(-c4ccc(C(F)(F)F)cc4Cl)oc23)[C@@H]1CO | measured: Dizziness | AML | oral, 200 mg, intermittent dosing | patients with adverse event | 10%
COc1ccc([C@@H]2CC(=O)c3c(O)cc(O)cc3O2)cc1O | – | male Sprague-Dawley rat, lean | oral, 100 mg/kg of neohesperidin, 12 to 24 h | faecal excreted amount | 2050 ± 856 ng
O=C1Nc2cc3[nH]nc(-c4ccncc4)c3cc2CN1Cc1ccccc1 | measured: infusion-related reaction | patients with advanced solid tumours | intravenous, dose not given | patients with grade ≥3 TEAE | 7%
CC(C)[C@@H]1NC(=O)CNC(=O)[C@H](CC(N)=O)NC(=O)[C@H](CCCNC(=N)N)NC(=O)[C@H](Cc2ccc(O)cc2)NC(=O)[C@H](C(C)C)NC(=O)[C@@H](NC(=O)[C@@H](NC(=O)[C@H](CC(N)=O)NC(=O)[C@H](Cc2c[nH]c3ccccc23)NC(=O)[C@H](C)NC(=O)[C@H](Cc2ccccc2)NC(=O)CN)C(C)C)CSSC[C@@H](C(=O)N[C@@H](Cc2cnc[nH]2)C(=O)N[C@@H](CCCNC(=N)N)C(=O)N[C@@H](CCCNC(=N)N)C(=O)N[C@@H](C)C(=O)N[C@@H](CC(N)=O)C(N)=O)NC(=O)[C@H](C(C)C)NC(=O)[C@H](CCCNC(=N)N)NC1=O | – | ICR mice, blood | intraperitoneal, 10 mg/kg, day 5 | mean corpuscular haemoglobin | 13.5 ± 0.26 pg
O=C(Oc1ccc(Br)cc1)[c-]1cccc1.[Fe+2].c1cc[cH-]c1 | cyclic voltammetry | methanol/DMEM 1:1 with TBAPF6 | concentration not given, Pt disk electrode, Ag/AgCl reference, together with: scan rate 100 mV/s | reduction potential | 484 mV
O=c1ccc2ncc(=O)n3c2n1C[C@H]3CN1CCC(NCc2cc3c(cn2)OCCC3)CC1 | measured: ventricular extrasystoles | healthy human participants | oral, 1500 mg, together with: rifampicin 600 mg | adverse event incidence | 6%
C=CCNc1c(O)cc2c(O)c1C[C@@H](C)C[C@H](OC)[C@H](O)[C@@H](C)/C=C(\C)[C@H](OC(N)=O)[C@@H](OC)/C=C\C=C(/C)C(=O)N2 | – | human unresectable metastatic GIST or sarcoma | intravenous, dose not given | discontinuation due to adverse events | 5.6%
C[C@@H](O)[C@@H]1NC(=O)CNC(=O)[C@H](Cc2c[nH]cn2)NC(=O)[C@H](Cc2c[nH]c3ccccc23)NC(=O)[C@H](CC(N)=O)NC(=O)CNC(=O)C[C@@H](C(=O)N[C@@H](Cc2c[nH]c3ccccc23)C(=O)N[C@@H](Cc2ccccc2)C(=O)N[C@@H](Cc2ccccc2)C(=O)N[C@@H](CC(N)=O)C(=O)N[C@@H](Cc2ccc(O)cc2)C(=O)N[C@@H](Cc2ccc(O)cc2)C(=O)N[C@@H](Cc2c[nH]c3ccccc23)C(=O)O)NC(=O)[C@@H]2CCCN2C(=O)[C@H](CO)NC1=O | – | male CD-1 mouse | intravenous, 3 mg/kg | Vz | 0.73 L/kg
CCCC(CCC)NC(=O)c1ccc2c(c1)OCO2 | – | Swiss albino CD-1 mice, male, bone marrow | intraperitoneal, 175 mg/kg, 48 h | micronucleated PCEs | 0.1%
C[C@@H]1OC(=O)NN=C1c1ccc(-c2ccc(F)cc2)c(C(F)(F)F)c1 | phase I trial, measured: non-cardiac chest pain all grades | human patients | 10 mg loading then 0.5 mg daily | patients with adverse event | 100%
CC[C@H](C)[C@H](NC(=O)[C@H](Cc1ccccc1)NC(=O)[C@H](CCC(=O)O)NC(=O)[C@H](CCCNC(=N)N)NC(=O)[C@H](C)NC(=O)[C@H](C)NC(=O)[C@H](CCC(N)=O)NC(=O)[C@H](CCC(=O)O)NC(=O)[C@H](CCC(=O)O)NC(=O)[C@H](CC(C)C)NC(=O)[C@H](Cc1ccc(O)cc1)NC(=O)[C@H](CO)NC(=O)[C@H](CO)NC(=O)[C@@H](NC(=O)[C@H](CC(=O)O)NC(=O)[C@H](CO)NC(=O)[C@@H](NC(=O)[C@H](Cc1ccccc1)NC(=O)[C@@H](NC(=O)CNC(=O)[C@H](CCC(=O)O)NC(=O)[C@H](C)NC(=O)CCc1cnc[nH]1)[C@@H](C)O)[C@@H](C)O)C(C)C)C(=O)N[C@@H](C)C(=O)N[C@@H](Cc1c[nH]c2ccccc12)C(=O)N[C@@H](CC(C)C)C(=O)N[C@H](C(=O)N[C@@H](CCCNC(=N)N)C(=O)NCC(=O)N[C@@H](CCCNC(=N)N)C(=O)N[C@@H](CCCCNC(=O)COCCOCCNC(=O)COCCOCCNC(=O)CC[C@H](NC(=O)CCCCCCCCCCCCCCCCC(=O)O)C(=O)O)C(=O)NCC(=O)NCC(=O)N[C@@H](CO)C(=O)N[C@@H](CCCCNC(=O)[C@H](CCCCNC(=O)[C@H](CCCCNc1c(NCCCCCN(O)C(=O)CCC(=O)NCCCCCN(O)C(=O)CCC(=O)NCCCCCN(O)C(C)=O)c(=O)c1=O)Nc1c(NCCCCCN(O)C(=O)CCC(=O)NCCCCCN(O)C(=O)CCC(=O)NCCCCCN(O)C(C)=O)c(=O)c1=O)NC(=O)[C@H](CCCCNc1c(NCCCCCN(O)C(=O)CCC(=O)NCCCCCN(O)C(=O)CCC(=O)NCCCCCN(O)C(C)=O)c(=O)c1=O)Nc1c(NCCCCCN(O)C(=O)CCC(=O)NCCCCCN(O)C(=O)CCC(=O)NCCCCCN(O)C(C)=O)c(=O)c1=O)C(=O)O)C(C)C [zirconium-89 labelled] | ex vivo gamma counting | Sprague-Dawley rat, male, muscle | intravenous, 1 nmol, 24 h | tissue uptake | 0.107 %ID/g and 0.122 %ID/g and 0.103 %ID/g and 0.119 %ID/g and 0.124 %ID/g
O=S(=O)(Nc1ccccc1)c1ccc(NC(=S)Nc2ccccc2)cc1 | measured: LY% | male mouse, blood | oral, 20 mg/kg daily, 14 days | blood cell fraction | 79.4%
O=C(Nc1ccccc1)C1CCN(C(=O)Oc2cccnc2)CC1 | – | healthy women | oral, 100 mg, 9 days | adverse event Fatigue | 46.2%
c1csc(CNc2cc[nH]n2)c1 | micronucleus | CD-1 mouse Hsd:ICR(CD-1), male, bone marrow | oral, 500 mg/kg/day, 3 days | micronucleated PCE per 1000 PCE | 0.8
C[C@]1(CO)Cc2ncn(-c3ccc(C#N)c(Cl)c3)c2C(=O)O1 | – | human, Chinese, plasma | 60 mg single dose, geometric mean | AUC(0-inf) | 20.2 µM·h

For quick reference, copied from above:
Structure (SMILES) | assay | system | setting | quantity | result
COc1ncccc1-c1cnn2ccc(N3CCN(C(=O)OC(C)C)CC3)nc12 | – | rat, CCI cold allodynia model, brain | oral, 1 mg/kg, 240 min | drug concentration | 430 nM
CN1CC[C@@H](c2c(O)cc(O)c3c(=O)cc(-c4ccc(C(F)(F)F)cc4Cl)oc23)[C@@H]1CO | measured: Dizziness | AML | oral, 200 mg, intermittent dosing | patients with adverse event | 10%
